Measured values of several laboratories.
Each numbered part is a random draw from the data of one study; scales do not carry over between parts. Substitutions count along the parent as printed.

Sample 1
Target: Histone acetyltransferase KAT6A, winged helix 2, GST fusion (KAT6A, Homo sapiens, UniProt Q92794, residues 85-181)
Technique: protein binding microarray
Molecule type: double-stranded DNA, one strand shown
Medium: in vitro
Concentration: not given
Setting: 8-mer, flanks averaged, mean of 2 arrays, mostly near background
Baseline: not given
Direction: higher = stronger binding
Measurement: E-score
Construct (chain): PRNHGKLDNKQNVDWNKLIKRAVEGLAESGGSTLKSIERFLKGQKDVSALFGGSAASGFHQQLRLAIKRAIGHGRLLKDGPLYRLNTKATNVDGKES
GCAGGTGA: 0.0699
ACTGGGCG: -0.0468
CCCATACA: -0.113
CTAGTGAG: -0.0037
GGACTTCA: -0.164
GGGGCCAA: -0.0799
CGGGGCAA: 0.148
CTGGGAAG: 0.0979
GAAATGTC: -0.043
GTAGGTTA: -0.0555
CGAGTGCG: 0.12
CCTACCGA: -0.173
CTCGCAAG: 0.0977
AGCTCCAG: 0.123
CTAGGGTA: -0.126
ACTGATTC: 0.0186
GCCATTAC: -0.094
GAGCTTGA: -0.0839
CCCTACTC: 0.0251

Sample 2
Target: TAR DNA-binding protein 43, full length, His tag (TARDBP, Homo sapiens, UniProt Q13148, residues 1-414)
Technique: RNA Bind-n-Seq
Molecule type: RNA
Medium: in vitro
Concentration: 20 nM
Setting: 6-mer, flanks averaged, single round
Added: 150 mM LiCl
Baseline: input library
Direction: higher = stronger binding
Measurement: 6-mer enrichment (R)
GUUUAG: 1.15
ACCUGU: 0.888
UAUCUG: 0.898
GAUAGA: 0.935
UCGCUU: 0.913
UUCUUC: 0.95
GCCUCU: 0.947
AGCGCU: 0.893
GCACGU: 0.936
GUGGCG: 1.28
UUAUCU: 0.992
GGGAUU: 1
UUUCGA: 0.909

Sample 3
Target: BATF, bZIP domain (human)
Technique: DHFR protein complementation
Medium: yeast
Setting: single substitutions, most at no-binding floor
Baseline: wild-type JUN-FOS pair
Direction: higher = stronger binding
Measurement: binding fitness
Parent: JUN, bZIP domain (human); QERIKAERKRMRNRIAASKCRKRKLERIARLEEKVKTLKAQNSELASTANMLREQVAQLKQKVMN; partner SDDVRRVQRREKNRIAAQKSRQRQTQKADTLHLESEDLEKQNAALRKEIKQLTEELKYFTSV
A29D: -0.0166 natural log
L59W: -0.155 natural log
L38H: -0.961 natural log
I28E: 0.0791 natural log
S47F: 0.0131 natural log
E44C: -0.0859 natural log
L38T: -0.818 natural log
A57E: 0.0463 natural log
I28Y: -0.022 natural log
S43C: -0.0314 natural log
A46V: 0.0238 natural log
A49I: -0.38 natural log
E44N: -0.154 natural log
K39V: -0.316 natural log
K39W: -0.354 natural log
T48R: 0.0756 natural log
S43W: -0.121 natural log
E33N: -0.186 natural log
E44P: -1.26 natural log
L59A: 0.0998 natural log
R30Q: 0.105 natural log
Q41L: -0.0865 natural log
K39N: -0.283 natural log

Sample 4
Target: CCNB2, cyclin fold, Cln2 fusion (human)
Technique: yeast growth competition, sequencing
Medium: yeast
Setting: weak parent motif
Baseline: not given
Direction: higher = stronger binding
Measurement: normalised enrichment score
Parent: BORA docking peptide (human); SSLRRKLFLDGNG
SSARRKLFLDGNG [L3A]: 0.0154
SSLRRKLALDGNG [F8A]: 0.702
SSLRRKLFLAGNG [D10A]: -0.0593
SSLRRKLFADGNG [L9A]: -0.192
SSLRRKLLLDGNG [F8L]: 0.605
SSLRRKLFLDANG [G11A]: 0.497
SSLRAKAFLDGNG [R5A L7A]: -0.253
SSLRRKLFLDGNA [G13A]: 0.442
SSLRKKLFFDGNG [R5K L9F]: 1.41
SSLARKLFLDGNG [R4A]: 0.767
SSLRKKLLLDGNG [R5K F8L]: 0.413

Sample 5
Target: Ras GTPase-activating protein-binding protein 1, RRM domain (G3BP1, Homo sapiens, UniProt Q13283)
UniProt Q13283, sequence (whole entry, looked up): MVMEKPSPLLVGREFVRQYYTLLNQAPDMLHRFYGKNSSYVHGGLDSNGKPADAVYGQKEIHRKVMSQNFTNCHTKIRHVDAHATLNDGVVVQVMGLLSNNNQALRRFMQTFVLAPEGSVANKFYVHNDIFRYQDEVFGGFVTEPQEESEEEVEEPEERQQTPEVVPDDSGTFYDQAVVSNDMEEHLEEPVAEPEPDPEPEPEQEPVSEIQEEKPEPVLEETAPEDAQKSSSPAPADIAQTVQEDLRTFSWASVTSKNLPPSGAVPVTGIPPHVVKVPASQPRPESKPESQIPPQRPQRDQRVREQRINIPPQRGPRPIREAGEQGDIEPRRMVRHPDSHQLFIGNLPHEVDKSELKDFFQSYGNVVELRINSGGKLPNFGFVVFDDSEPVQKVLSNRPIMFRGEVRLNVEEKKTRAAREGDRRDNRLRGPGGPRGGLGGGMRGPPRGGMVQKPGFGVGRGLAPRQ
Technique: RNA Bind-n-Seq
Molecule type: RNA
Medium: in vitro
Concentration: 1 µM
Setting: whole 134-nt RNA, ends assumed
Added: 150 mM KCl
Baseline: input library
Direction: higher = stronger binding
Measurement: log2 enrichment
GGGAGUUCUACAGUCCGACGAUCGUCCUGUGCUACACAUCGUAUGUACCGAAUCGGGGUUUGGGGUUUUUGGGGUUUGGGGAAAGUAUUAUGUUACGCCGUUCGGAUCUGCACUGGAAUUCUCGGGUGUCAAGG: 1.71
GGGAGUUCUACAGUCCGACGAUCAGUCCUGUGCUACACAUCGUAUGUACCGAAUCGGUUUUUUUGGUUUUUGGUUUUUGGAAAGUAUUAUGUUACGCCGUUCGGAUCUGCACUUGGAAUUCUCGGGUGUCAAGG: -0.171
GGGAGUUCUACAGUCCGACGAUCCACAGACAACACGCACCCACACAGACACAGAGGGAAGGGGUUGGGAUGGGGACAGGGUGCACAGCAGGGCGGGGUAGGACCCCAACCCCUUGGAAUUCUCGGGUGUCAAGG: -0.341
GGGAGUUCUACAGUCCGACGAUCUGGCCCUGGUGGCAUGCGGGGAGGAAGAGGUGGCCUCAUGGAUCGUGGUGGUCCCGGUGGAAUGUUCAGAGGUGGCCGCGGUGGAGACAGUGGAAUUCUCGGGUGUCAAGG: 0.501
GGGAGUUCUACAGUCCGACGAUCUCCUCAAGUCCUGUGCUACACAUCGUAUGUACCGAAUCGGAGGGGAGGAGGGAAAGUAUUAUGUUACGCCGUUCGGAUCUGCACUUCCAGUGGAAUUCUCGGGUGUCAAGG: -0.223
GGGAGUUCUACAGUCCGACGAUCCACAGACAACACGCACCCACACAGACAUAGAGGGAAGGGGUUGGGAUGGGGACAGGGUGCACAGCAGGGCGGGGUAGGACCCCAGCCCCUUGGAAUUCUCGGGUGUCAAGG: 0.0135
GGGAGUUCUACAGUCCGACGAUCUCCUCAAGUCCUGUGCUACACAUCGUAUGUACCGAAUCGGGGCGGCGGCGGAAAGUAUUAUGUUACGCCGUUCGGAUCUGCACUUCCAGCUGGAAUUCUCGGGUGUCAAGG: -0.168
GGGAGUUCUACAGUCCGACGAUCACCAUGCAGGUGGGCAUCUUUGGGAAGUGGGGCAAGGGGGGGAUAGGGAGGGGGGUAACACUUUGGGAACAGGUGGACCCAGGUCGUUUCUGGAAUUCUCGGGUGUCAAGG: 0.252
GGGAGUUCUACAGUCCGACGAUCCUCAAGUCCUGUGCUACACAUCGUAUGUACCGAAUCGGGUUGGUUGGUUGGGGAAAGUAUUAUGUUACGCCGUUCGGAUCUGCACUUCCAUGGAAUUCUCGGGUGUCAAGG: -0.218
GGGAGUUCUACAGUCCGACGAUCGUCCUGUGCUACACAUCGUAUGUACCGAAUCGGGGUUUUGGGGUUUUGGGGUUUUGGGGAAAGUAUUAUGUUACGCCGUUCGGAUCUGCAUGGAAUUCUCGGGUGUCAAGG: 1.91
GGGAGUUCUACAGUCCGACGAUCGCAGGAAGUAAAAACAAAUGGAAAUGCUUCGGAUAGUGGCAGGGGUGGGGGUUGCUAAGGAAAGGGUGGGAUGGGAGGGGGUAAAGAGUUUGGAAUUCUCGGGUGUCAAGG: 1.57
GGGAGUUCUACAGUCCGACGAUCUUUGGCAAUGAGAUCUAAACCAGACAAAGACCUCCUUAUGGAAGAAGAUGACAUGGCCUUGGCAAAUGUAGUCAUGCAGGAAGCUCAGAAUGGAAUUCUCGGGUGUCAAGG: 0.47
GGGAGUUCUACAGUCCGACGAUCCACAGACAACACGCACCCACACAGACACAGAGGGAAGGGGUUGGGAUGGGGACAGGGUGCACAGCAGGGCGGGGUAGGACCCCAGCCCCCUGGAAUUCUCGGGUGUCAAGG: -0.403
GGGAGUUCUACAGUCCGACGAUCCAAGUCCUGUGCUACACAUCGUAUGUACCGAAUCGGGGUGGGGAGGGGAAAGGGGAAAGUAUUAUGUUACGCCGUUCGGAUCUGCACUUCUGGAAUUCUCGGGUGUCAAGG: 1.25

Sample 6
Target: RING finger protein unkempt homolog, zinc fingers 1-6, SBP tag (UNK, Homo sapiens, UniProt Q9C0B0, residues 30-357)
UniProt Q9C0B0, sequence (30-357, looked up): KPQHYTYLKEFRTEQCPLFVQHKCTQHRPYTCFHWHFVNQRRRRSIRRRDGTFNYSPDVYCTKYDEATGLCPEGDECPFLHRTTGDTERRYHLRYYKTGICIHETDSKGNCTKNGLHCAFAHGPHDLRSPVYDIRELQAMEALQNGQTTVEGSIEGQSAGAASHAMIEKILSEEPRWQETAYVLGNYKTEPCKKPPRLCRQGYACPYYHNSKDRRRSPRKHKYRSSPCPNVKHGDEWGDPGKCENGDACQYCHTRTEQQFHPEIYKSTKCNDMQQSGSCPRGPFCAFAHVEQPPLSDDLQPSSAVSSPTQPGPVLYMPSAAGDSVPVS
Technique: RNA Bind-n-Seq
Molecule type: RNA
Medium: in vitro
Concentration: 100 nM
Setting: RNA with constant flanks, vertebrate orthologous sites, ends assumed
Baseline: input RNA pool
Direction: higher = stronger binding
Measurement: bound/input enrichment
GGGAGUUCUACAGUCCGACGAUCCAGCAGAUUCUCUUAUAGGGAGAGCUGCACAUAUUGCAGUUCUUGAUUCAGAAAUAUUUUUAGAAAAAUUCUUUCUUGUUGCUGCCCUAAAAUACUUUCAGUAGAGAAAAACAUUGUAAGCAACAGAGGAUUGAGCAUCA: 0.507 ratio
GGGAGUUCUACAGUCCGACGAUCUUCUAGUACUUAAGCCAAUAGUUCUAAAAUGCUAUUUAUUUGUGUCUGUAAGUUUGUACAUAGUAAUUCCAAUCUCAUUGUUGCGGAAUUUUUUCAUGCAUUUGAGUUUUCCUUGAAAUUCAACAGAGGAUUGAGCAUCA: 0.458 ratio
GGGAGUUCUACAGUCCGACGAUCAGUCCCCUGGGCCGGGACAGGUUUUUUUUUUAACGUCUUGAAAUUUAAACUCUGUGCUUGUAGGAGACUGUAACCUUUUUGUCUUUUUUUUUUUUUUUAAAAAAAAACAACCUCCACCUCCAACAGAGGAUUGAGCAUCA: 0.39 ratio
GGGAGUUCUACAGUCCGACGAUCUUCAUUGUACUGCAGCCAUCAUCCUCCAUCUAAGCUACGACAGUAGUUACUAAUCUCUGCUGAGAGAAUCAUGUACUAUUAAUACUUUUAUACCAUCUGUUUGGUCAGAUGCCUGAAAUGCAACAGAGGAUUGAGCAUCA: 0.837 ratio
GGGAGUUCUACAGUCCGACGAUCAUUGGAUGUAGUGUAAAAUUAUCCAAGGCAGUGACUUCAGCUUUAUAUAUAUAUAAAAUAUAGUUAGUUUUAAAGUUACUGACAUUUAUUUAAACUUUUAGAUUGGAUUGUUUGCUAUUGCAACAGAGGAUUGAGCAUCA: 0.568 ratio
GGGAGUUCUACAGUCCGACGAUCAGCCAUUUUUUUCCACGUUUUCUGUAAAUAAUGGAUAAUCAUUUUUAAAAAUUUUAUUUUUAGUGCUGUUUUAGCAAUGUGGAUAGAUCAUAAAUGUACUUGCUGAAUUCAAUCAUUUUUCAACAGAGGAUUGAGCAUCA: 0.398 ratio
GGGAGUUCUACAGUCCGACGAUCUAUUCGUGUCAUACCAGCAUAUUAACCUCUCGUCUGUGCACAGCUUCAAAUGUUACCGUCUAGUUAGAUUUUUAUUUAAAAUAUGAAAAACUGCUUUUCCCAAGACGUUUUUUAAAAACACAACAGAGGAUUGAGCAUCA: 1.28 ratio
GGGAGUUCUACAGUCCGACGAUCAUGUUCUUAGAAAAGAAUUCUCAUUCAUCUUCCCAUAGUGAAAUUCUCUAGCACUGUAUUUAGAUUCUGGAUUUUUAUAAUUCAUGCUUAAUGUAUUAGACAUUUUUAGCCCAUAAUUAACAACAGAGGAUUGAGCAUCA: 1.1 ratio
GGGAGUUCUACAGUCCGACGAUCUUUCAGGGACGCUUUGAUGUAAAAAUUGAAGUUAAGAGCUGAUCACAAGCUCUUUCCCACUAGCCAUUUAAAGAGUUUAAAAAGAUUCAGAAACAAAAAACCUACUAGUCUUGAACAAACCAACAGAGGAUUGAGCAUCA: 0.811 ratio
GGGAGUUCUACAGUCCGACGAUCCUAUUGUGUGAAACAUGUCUACCCAGGAAAGUAACACUCUAUAAAUACUGUUAAACAAUUUAGCUAUAUUAUUUUUAAGUAUUAUAUUGUAUGUCAAGCAGUUAAAAUGAAUUUCAGAGUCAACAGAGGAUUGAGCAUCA: 0.394 ratio
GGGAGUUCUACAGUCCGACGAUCUCUUAUUGAUCAGGUCUGUAAAUGUGUACUAAAAAAAUCAGAGUUUAUUUAUAAACAGAAUAGUUUAUUUAAAGAGAAGCUCUUUUCCUUAUUGAUAUCAUGGUAUGCAUUAAUUCCAUUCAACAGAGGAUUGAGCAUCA: 0.0659 ratio

Sample 7
Target: ABI1, truncated, D143A, DHFR fusion (Arabidopsis thaliana)
Technique: DHFR PCA, deep sequencing
Medium: yeast
Setting: methotrexate growth selection, single substitutions
Added: (+)-ABA 1.4 µM
Baseline: wild-type fitted maximum
Direction: higher = stronger binding
Measurement: relative binding score
Parent: PYL1, truncated, DHFR fusion (Arabidopsis thaliana); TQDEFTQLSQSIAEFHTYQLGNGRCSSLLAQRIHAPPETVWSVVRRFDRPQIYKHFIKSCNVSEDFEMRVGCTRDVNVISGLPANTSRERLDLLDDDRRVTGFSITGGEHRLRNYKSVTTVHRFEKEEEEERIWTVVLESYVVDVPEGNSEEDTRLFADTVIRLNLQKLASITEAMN
E127C: 52.9%
R88N: 32.5%
Q10C: 49.2%
D95G: -2.88%
V40F: -37.6%
L156K: -8.5%
P36M: 31.5%
E174D: 1.17%
M68I: 56%
R46P: -1.38%
F15P: -11.2%
F47M: 1.04%
S104R: 1.9%
R123K: 83.5%
D48C: -3.72%
E4Y: 27.1%
E38S: 41.8%
S63A: 68.5%
V44W: -11.9%
D3Y: 27.2%
C72E: 43.2%
I33G: 9.05%
R98T: 13.2%
A13I: 26.3%
D97R: 42.8%

Mixed results
PhoQ, residues 284 288 289 292 302 303 SMMNNA  fold induction (PhoP, residues 12 14 15 18 19 VQALL (Escherichia coli, UniProt P23836); Sort-seq, item: YFP reporter; E. coli; PhoQ-PhoP variant library, added: 10 µM Mg2+; baseline: high Mg2+ state, higher = stronger signaling): 6.25

Some of these lines once more (sample 7):
R98T: 13.2%
D97R: 42.8%
C72E: 43.2%
Q10C: 49.2%
R123K: 83.5%
R88N: 32.5%
